# Measurements collected from several papers.
# Each numbered part is a random draw from the data of one study; scales do not carry over between parts. Substitutions count along the parent as printed.

# Set 1 — technique: RNAcompete; form: RNA; sample: in vitro; concentration: 20 nM; setting: 7-mer, probes averaged, single round; baseline: mean of 7-mers; direction: higher = stronger binding
# Target: PABPC1L2, full length, GST fusion (mouse, UniProt A0ABA7IW68)
# Residues (chain): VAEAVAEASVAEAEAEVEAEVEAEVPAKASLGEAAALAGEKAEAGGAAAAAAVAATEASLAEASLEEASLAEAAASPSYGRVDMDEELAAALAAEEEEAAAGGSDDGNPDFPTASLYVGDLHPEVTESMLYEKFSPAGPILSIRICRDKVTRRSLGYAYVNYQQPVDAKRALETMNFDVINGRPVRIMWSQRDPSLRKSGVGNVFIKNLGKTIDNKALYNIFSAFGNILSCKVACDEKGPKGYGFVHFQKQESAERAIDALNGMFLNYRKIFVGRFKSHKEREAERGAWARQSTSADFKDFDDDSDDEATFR
Sequence,7-mer Z-score
GUGGCAU,0.225
GAGGAUU,-0.173
UCAGGGC,-0.0174
CAUAGGC,-0.0192
ACUGGCU,-0.0826
CAUGAGU,-0.182
GUAGCCA,-0.199
ACGGCGA,0.119

# Set 2 — target: JDP2, bZIP domain (human); technique: DHFR protein complementation; sample: yeast; baseline: wild-type JUN-FOS pair; direction: higher = stronger binding
# Setting: single substitutions, most at no-binding floor
# Starting sequence: JUN, bZIP domain (human); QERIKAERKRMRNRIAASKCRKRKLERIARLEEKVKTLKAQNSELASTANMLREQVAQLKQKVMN; partner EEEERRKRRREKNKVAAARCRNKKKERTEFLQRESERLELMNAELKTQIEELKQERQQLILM
Substitution,binding fitness
A40C,0.274 natural log
R53I,0.196 natural log
I28H,0.277 natural log
E33Q,0.0926 natural log
M51Q,0.292 natural log
A40N,0.327 natural log
K36T,0.259 natural log
K39S,0.269 natural log

# Set 3 — technique: protein-binding microarray; form: double-stranded DNA, one strand shown; sample: in vitro; concentration: 250 nM; setting: 60-bp whole probe; together with: salmon DNA 0.4 mg/ml; baseline: random background probes; direction: higher = stronger binding; shared flanks, not repeated: GCCTAGCAC … GTCTTGATTCGCTTGACGCTGCTG
# Target: Interferon regulatory factor 5, full length, phosphomimetic (IRF5, Homo sapiens, UniProt Q13568-2, residues 1-514, K96S/S451D/S453D/S456D/S462D)
Sequence,log fluorescence [z-score]
TTAGGTCTCGGGCTCGGTTAGTGCTAG,-0.0978
TTAGGGCTGGGGACTGGGTTAGTGCTA,-0.908
TTAGATTTCATTATCGATTAGTGCTAG,7.65
TTAGGTATCGTTATCGGTTAGTGCTAG,7.59
GTCGATTTCAGTCTCGAGACGTGCTAG,2.44
TCACCACTTTCTTTTGCACTGTGCTAG,2.36
TCAGGAGTGTTTCTCAGACTGTGCTAG,-0.309
GACGACTTCAGTTCCGAGACGTGCTAG,0.0291

# Mixed results
Compound,target,test,conditions,measurement,result
CO[C@H]1CC[C@H](CNc2ccc(S(=O)(=O)NC(=O)c3ccc(N4CCN(CC5=C(c6ccc(Cl)cc6)CC(C)(C)CC5)CC4)cc3Oc3cnc4[nH]ccc4c3)cc2[N+](=O)[O-])CC1,"STE20/SPS1-related proline-alanine-rich protein kinase (STK39, Homo sapiens, UniProt Q9UEW8)","cell-free assay, competition with immobilised ligand",1 µM,remaining binding,100%

# A few entries again (set 3):
Sequence,log fluorescence [z-score]
GACGACTTCAGTTCCGAGACGTGCTAG,0.0291
TTAGGGCTGGGGACTGGGTTAGTGCTA,-0.908
